Assay results of several laboratories.
Lines come from different studies, so protocols differ.
IGF1R: Insulin-like growth factor 1 receptor (IGF1R, Homo sapiens, UniProt P08069)
Chain of UniProt P08069 (whole entry, looked up): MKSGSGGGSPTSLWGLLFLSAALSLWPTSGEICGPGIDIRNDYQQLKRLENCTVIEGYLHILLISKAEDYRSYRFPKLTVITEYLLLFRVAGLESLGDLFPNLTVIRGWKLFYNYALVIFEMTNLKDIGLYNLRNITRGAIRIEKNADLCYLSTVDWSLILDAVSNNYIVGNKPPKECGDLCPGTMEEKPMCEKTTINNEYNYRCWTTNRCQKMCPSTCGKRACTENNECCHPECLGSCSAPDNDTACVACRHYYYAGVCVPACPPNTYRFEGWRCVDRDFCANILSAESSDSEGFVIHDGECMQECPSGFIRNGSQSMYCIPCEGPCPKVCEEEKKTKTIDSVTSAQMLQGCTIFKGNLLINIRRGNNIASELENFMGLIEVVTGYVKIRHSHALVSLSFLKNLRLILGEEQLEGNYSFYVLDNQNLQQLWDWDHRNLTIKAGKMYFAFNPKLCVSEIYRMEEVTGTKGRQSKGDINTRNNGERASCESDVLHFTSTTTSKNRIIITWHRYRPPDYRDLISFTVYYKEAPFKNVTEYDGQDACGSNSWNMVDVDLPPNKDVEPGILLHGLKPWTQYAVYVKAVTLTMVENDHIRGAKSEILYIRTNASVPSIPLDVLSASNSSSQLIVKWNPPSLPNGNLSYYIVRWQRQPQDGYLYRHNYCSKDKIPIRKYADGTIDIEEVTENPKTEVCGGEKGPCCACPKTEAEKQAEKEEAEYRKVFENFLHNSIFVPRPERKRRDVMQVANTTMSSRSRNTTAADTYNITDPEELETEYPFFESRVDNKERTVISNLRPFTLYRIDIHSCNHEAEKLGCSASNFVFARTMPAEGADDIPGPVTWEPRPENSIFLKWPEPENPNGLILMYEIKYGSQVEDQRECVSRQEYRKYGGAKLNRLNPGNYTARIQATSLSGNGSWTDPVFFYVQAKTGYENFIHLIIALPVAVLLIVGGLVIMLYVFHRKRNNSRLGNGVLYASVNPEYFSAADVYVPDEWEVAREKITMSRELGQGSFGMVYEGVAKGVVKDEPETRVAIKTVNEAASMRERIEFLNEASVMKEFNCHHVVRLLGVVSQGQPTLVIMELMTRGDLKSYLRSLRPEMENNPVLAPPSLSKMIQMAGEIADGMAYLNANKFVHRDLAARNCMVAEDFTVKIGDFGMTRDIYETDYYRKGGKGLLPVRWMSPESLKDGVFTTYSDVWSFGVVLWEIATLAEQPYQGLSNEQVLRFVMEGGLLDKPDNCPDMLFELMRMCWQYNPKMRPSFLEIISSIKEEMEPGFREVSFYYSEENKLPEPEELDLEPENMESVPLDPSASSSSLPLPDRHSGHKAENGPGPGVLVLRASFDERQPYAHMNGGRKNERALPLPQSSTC

Compound	target	assay	setting	how to read	endpoint	value
COc1cc(-c2cncc3c2CN(C)Cc2cc(N4CCNCC4)ccc2-3)cc(OC)c1OC	Insulin-like growth factor 1 receptor, activated (IGF1R, Homo sapiens, UniProt P08069)	kinase activity	1 µM, added: ATP 10 µM	baseline: DMSO control	remaining activity	111%
COc1cc(N2CCN(C)CC2)ccc1Nc1nc(N)n(C(=S)NCc2c(Cl)cccc2Cl)n1	IGF1R	enzyme activity	10 µM	baseline: control	remaining activity	0%
COc1cc(F)ccc1-c1ncnc(Nc2cccc(C[S@](C)(=N)=O)c2)n1	IGF1R	kinase activity	10 µM, added: 10 µM ATP	–	remaining activity	95%
COc1cc2c(Nc3ccc(Br)cc3F)ncnc2cc1OCC1CCN(C)CC1	IGF1R	inhibitor, radiometric phosphocellulose	10 µM, added: ATP 0.2 mM	–	inhibition	35%
Cc1cc(Nc2cc(N3CCN(C)CC3)nc(Sc3ccc(NC(=O)C4CC4)cc3)n2)[nH]n1	IGF1R	kinase activity, KinaseProfiler	0.03 µM, species human	baseline: control	remaining activity	73%
COc1cc(N2CCN(C)CC2)ccc1Nc1nc(N)n(C(=O)NCc2c(Cl)cccc2Cl)n1	IGF1R	enzyme activity	10 µM	baseline: control	remaining activity	3.8%
O=C1NC(=O)/C(=C/c2ccc(-c3ccc(F)cc3O)o2)S1	IGF1R	enzyme activity	10 µM	–	remaining activity	75%
CCOc1cc(N2CCN(C)CC2)ccc1Nc1nc(N)n(C(=O)NCc2ccccc2S(=O)(=O)C(C)C)n1	IGF1R	enzyme activity	10 µM	baseline: control	remaining activity	1.1%
c1cnc2ccc(Nc3nc(NC4CC4)c4nc[nH]c4n3)cc2c1	IGF1R	kinase activity, inhibitor, SelectScreen kinase profiling	1 µM	baseline: control	remaining activity	74%

A few entries again:
Compound	target	assay	setting	how to read	endpoint	value
COc1cc(N2CCN(C)CC2)ccc1Nc1nc(N)n(C(=S)NCc2c(Cl)cccc2Cl)n1	IGF1R	enzyme activity	10 µM	baseline: control	remaining activity	0%
